Values quoted from earlier work that unrelated publications cite.
Protocols differ between the studies behind these lines. Several values in a cell are separate wells, animals, samples, runs or records. Numbers after ± are the reported error.

`O=C(Nc1ccc(-c2nnc(-c3ccco3)o2)cc1)c1ccco1` gave an IC50 of 0.0137 ± 0.0075 µM (Plasmodium falciparum ENT1; [3H]adenosine uptake; PfENT1-expressing yeast).
For `Cc1nn(-c2ccc(F)cc2)c2ncnc(Nc3ccc(F)c(Cl)c3)c12`, the IC50 was 0.25 µM (HER2).
`CC(C)[C@H](NC(=O)[C@H](C)NC(=O)[C@H](Cc1c[nH]c2ccccc12)NC(=O)[C@H](Cc1c[nH]cn1)NC(=O)CCc1ccccc1)C(=O)N[C@H](C)C(=O)N[C@@H](Cc1c[nH]cn1)C(=O)N1CCC[C@@H]1CN[C@@H](Cc1ccccc1)C(N)=O` has an IC50 of 1e-06 ± 4e-07 µM (mouse GRP receptor; binding; literature species comparison).
For `CCCC[C@H]1C(=O)NCC(=O)N[C@@H](CC(=O)O)C(=O)N[C@@H](C(C)C)C(=O)N(C)[C@@H](Cc2ccccc2)C(=O)N[C@@H](Cc2ccc(O)cc2)C(=O)N(C)CC(=O)N[C@@H](Cc2c[nH]c3ccccc23)C(=O)N[C@@H](Cc2ccc(O)cc2)C(=O)N[C@@H](CC(C)C)C(=O)N[C@H](C(=O)NCC(N)=O)CSCC(=O)N[C@@H](Cc2ccccc2)C(=O)N(C)[C@@H](Cc2ccccc2)C(=O)N1C`, the IC50 was 0.014 µM (PD-L1; BMS patent value).
`CNC(=O)C1CCN(C(=O)CCC(=O)N(CC(C)(C)C)c2ccc(Cl)cc2C(O)c2ccccc2Cl)CC1` (stereo not drawn) gave an IC50 of 0.0013 µM (squalene synthase (rat); enzyme activity, inhibitor; rat hepatocytes).
`COc1ccc2c(/C=C(\C)C(=O)c3cc(OC)c(OC)c(OC)c3)c[nH]c2c1` gave an IC50 of 2.68 µM (tubulin; tubulin polymerization).
The IC50 of `Cc1ccc(C(=O)Nc2cc(C(=O)O)cc(-c3ccc(C4CCNCC4)cc3)c2)cc1` is reported as 0.00177 µM (P2Y14 receptor; antagonist).
`N#Cc1ccc(-c2csc(N3N=C(c4ccc(N5CCOCC5)cc4)CC3c3ccc(Cl)cc3)n2)cc1` (stereo not drawn) gave an IC50 of 2.3 µM (HER2; inhibitor).
With `O=C1CCc2ccc(OCc3cccc(Br)c3)cc2N1` the IC50 was 0.0029 µM (monoamine oxidase B; enzyme activity, inhibitor).
For `Cc1ccc(S(=O)(=O)Nc2ccc(-c3ccnc(Nc4ccc(S(=O)(=O)Nc5ncccn5)cc4)c3C#N)cc2)cc1`, the IC50 was 1.79 µM (CDK2; enzyme activity, inhibitor).
`Oc1ccc(Cl)cc1/C=N/c1nc(-c2ccccc2)cs1` has an IC50 of 5.63 µM (beta-glucuronidase (bovine liver)).
With `CCc1ccccc1NC(=O)CSc1nnc(C2CCN(C(=O)Nc3ccccc3)CC2)o1` the IC50 was 7.15 ± 0.26 µM (15-lipoxygenase; inhibitor).
With `CN(C)c1cc(Cl)c(C(=O)N(Cc2ccccc2)c2ccc(O)c(C(C)(C)C)c2)c(Cl)c1` the IC50 was 3.4 µM (farnesoid X receptor; antagonist).
`O=CN1N=C(c2cccnc2)CC1c1c(-c2ccccc2)[nH]c2ccccc12` (stereo not drawn) gave an IC50 of 3.84 µM (15-lipoxygenase-1; enzyme activity, inhibitor).
`COc1cc(C(C)C)c(Oc2cnc(N)nc2N)cc1I` gave an IC50 of greater than 10 µM (P2X7 receptor; inhibitor).
`Cc1ccc(-c2csc3nnc(SCC(=O)Nc4ccc5c(c4)OCO5)n23)cc1` gave an IC50 of 3 µM (IDO1; enzyme activity, inhibitor).
`Oc1c2cc3c(nc2nn1-c1ccccc1)CCC/C3=N\Nc1ccccc1` gave an IC50 of 0.00092 µM (c-Met kinase; inhibitor).
The IC50 of `Cc1cc(C)c(CNC(=O)c2c(O)c(O)cc3c(O)c(-c4c(C)cc5c(C(=O)NCc6c(C)cc(C)cc6C)c(O)c(O)cc5c4O)c(C)cc23)c(C)c1` is reported as roughly 1 µM (Mcl-1 (human); binding, fluorescence polarization; together with: fluorescent BH3 Bid peptide).
`O=C(O)C1Nc2ccc(Br)cc2C2C=CCC12` (stereo not drawn) gave an IC50 of 3.4 µM (macrophage migration inhibitory factor; tautomerase activity).
`Cc1ccc2nc(SCc3cn(-c4cccc(C(=O)O)c4)nn3)n(Cc3ccccc3)c(=O)c2c1` gave an IC50 of 0.0251 µM (Hsp90; inhibitor).
`Cc1cc(CN2CCN(c3c(Br)cnc4[nH]c(-c5ccc(N6CCN(C)CC6)cc5)nc34)CC2)no1` has an IC50 of 0.025 µM (Aurora B kinase; inhibitor).
`CCCCCCCCCCCCCC(=O)N[C@@H](CO)C(=O)N[C@H](C(=O)N[C@@H](Cc1ccc(O)cc1)C(=O)N[C@@H](CCCNC(=N)N)C(=O)N[C@@H](CCCNC(=N)N)C(=O)NCC(=O)N[C@@H](C)C(=O)N[C@@H](CCCNC(=N)N)C(=O)N[C@@H](CCCNC(=N)N)C(=O)N[C@@H](Cc1c[nH]c2ccccc12)C(=O)N[C@@H](CCCNC(=N)N)C(=O)N[C@@H](CCCCN)C(=O)N[C@@H](CC(C)C)C(=O)O)[C@@H](C)CC` has an IC50 of roughly 20 µM (atypical PKC; MARK2 phosphorylation, inhibitor).
`O=C(Nc1cccc(OCC2CCCN2)n1)Nc1csc(-c2ccncc2)n1` (stereo not drawn) gave an IC50 of 0.008 µM (CDK1; ATP-competitive inhibitor).
For `Cc1nn(-c2ccc(S(N)(=O)=O)cc2)c(C)c1-c1nnc(SCC(=NO)c2ccccc2)n1-c1ccccc1`, the IC50 was 9.81 µM (cyclooxygenase-1; inhibitor).
With `CCCCCCCCCc1nc2cc(Cl)ccc2c(=O)n1CCCN` the IC50 was 15 µM and 15.5 µM (PqsR, Pseudomonas aeruginosa; inhibitor).
With `CSCC[C@@H]1NC(=O)CNC(=O)[C@H](C(C)C)NC(=O)[C@H](CC(N)=O)NC(=O)[C@H](CCC(=O)O)NC(=O)[C@H](Cc2ccc(O)cc2)NC(=O)[C@H](CC(C)C)NC(=O)[C@H](CCC(=O)O)NC(=O)CSC[C@@H](C(N)=O)NC(=O)[C@H](Cc2ccc(O)cc2)NC1=O` the IC50 was 15 to 20 µM (GRB2 SH2 domain; binding, surface plasmon resonance).
`COc1nc(-c2cc(C)c(NC(C)c3ccc(F)cc3)nn2)ccc1-n1cnc(C)c1` (stereo not drawn) gave an IC50 of 0.007 µM (amyloid beta 42).
For `Cc1onc(-c2ccc(Cl)o2)c1-c1ccccc1`, the IC50 was greater than 4 µM (COX-2).
For `N[C@@H]1CCN1Cc1ccc(Oc2cccc(F)c2)cc1`, the IC50 was 0.021 µM (MAO-B; inhibitor).
The IC50 of `Cn1cc(C(=O)C(=O)Nc2ccc(C(=O)N3CCCC3)cc2)c2ccccc21` is reported as 0.0227 ± 0.0072 µM (Plasmodium falciparum ENT1; [3H]adenosine uptake; PfENT1-expressing yeast).
The IC50 of `O=C(O)CCCc1ccccc1` is reported as greater than 2000 µM (class IIa HDACs).
With `COc1ccc(S(=O)(=O)n2nc(OC(=O)c3ccccc3)cc2N)cc1` the IC50 was 0.105 µM (West Nile virus NS2B-NS3 protease; enzyme activity, inhibitor; 23).
The IC50 of `NS(=O)(=O)Oc1ccc2c3c(c(=O)oc2c1)CCC3` is reported as 0.2 µM and ≥ 0.2 µM (steroid sulfatase; placental microsomes).
`CCc1ccc(CCNC(=O)c2c(O)c(O)cc3c(O)c(-c4c(C)cc5c(C(=O)NCCc6ccc(CC)cc6)c(O)c(O)cc5c4O)c(C)cc23)cc1` has an IC50 of roughly 1 µM (Bcl-xL (human); binding, fluorescence polarization; together with: fluorescent BH3 Bid peptide).
The IC50 of `Cc1cc(N)c2ccccc2[n+]1CCCCCCCCCCCCCC[n+]1c(C)cc(N)c2ccccc21` is reported as 2.6 µM (PKCα; enzyme activity, inhibitor).
For `CCOC(=O)c1csc(NC(=S)Nc2ccc(Oc3ccccc3)cc2)n1`, the IC50 was 0.05 µM (DHFR; enzyme activity, inhibitor).
